Assay results pooled from the literature.
Each line is one published result; not all experiments were run side by side.

The MIC of `NC(=S)NN=Cc1ccc(OC(=O)CN2C(=O)CSC2=O)c(Cl)c1` is reported as 41.4 µM (Mycobacterium tuberculosis; Alamar blue; MDR 210).
For `Cc1cn(C2CCN(Cc3cccc(Oc4cc(Cl)cc(Cl)c4)c3)CC2)c(=O)[nH]c1=O`, the MIC was 15.6 µg/mL (Mycobacterium tuberculosis; H37Rv Rv1258c (tap) knockout).
The MIC of `NNC(=O)c1ccncc1` is reported as 0.06 µg/mL (Mycobacterium tuberculosis; H37Rv rpoB S450L mutant).
`COC(=O)C=C1SC(=NN=Cc2ccc(OC(=O)CN3C(=O)CSC3=O)cc2)NC1=O` has an MIC of 34.6 µM (Mycobacterium tuberculosis; Alamar blue; MDR 210).
For `CO[C@H]1/C=C/O[C@@]2(C)Oc3c(C)c(O)c4c(O)c(c(/C=N/N5CCN(C)CC5)c(O)c4c3C2=O)NC(=O)/C(C)=C\C=C\[C@H](C)[C@H](O)[C@@H](C)[C@@H](O)[C@@H](C)[C@H](OC(C)=O)[C@@H]1C`, the MIC was > 1 µg/mL (Mycobacterium tuberculosis; H37Rv rpoB S450L mutant).
`Cc1cn(C2CCN(Cc3ccnc(Oc4cccc(Cl)c4)c3)CC2)c(=O)[nH]c1=O` has an MIC of 31.2 µg/mL (Mycobacterium tuberculosis; H37Rv Rv3065 (mmr) knockout).
`CC[C@@H](CO)NCCN[C@@H](CC)CO` has an MIC of 19.6 µM (Mycobacterium tuberculosis; Alamar blue; MDR 210).
`Cc1cn(C2CCN(Cc3cccc(Oc4ccccc4)n3)CC2)c(=O)[nH]c1=O` has an MIC of > 250 µg/mL (Mycobacterium tuberculosis; H37Rv Rv1258c (tap) knockout).
For `Oc1cc(Cl)ccc1Oc1ccc(Cl)cc1Cl`, the MIC was 20 µg/mL (Mycobacterium tuberculosis; mc2 4914 (H37Rv-derived)).
The MIC of `NNC(=O)c1ccncc1` is reported as 7.29 µM (Mycobacterium tuberculosis; Alamar blue; MDR 210).
`CS(=O)(=O)Nc1ncn(-c2cc(F)c(COc3ccc(OS(=O)(=O)F)cc3)c(F)c2)n1` — result for “resistance mutation frequency”: 1.76e-09 mutants per cell (Mycobacterium tuberculosis; 10 x MIC).
`[Ca+2]` has an inhibition of 51.2% (Halyomorpha halys; inward current, inhibitor, electrophysiology; concentration not given).
For `NNC(=O)c1ccncc1`, the MIC was 0.4 µM (Mycobacterium tuberculosis; H37Rv).
For `NNC(=O)c1ccncc1`, “resistance mutation frequency” read 3.97e-06 mutants per cell (Mycobacterium tuberculosis; 4 x MIC).
`O=[N+]([O-])c1cn2c(n1)OC[C@@H](OCc1ccc(OC(F)(F)F)cc1)C2` has an MIC of 0.06 µg/mL (Mycobacterium tuberculosis; H37Rv gyrA D94K mutant).
